{"data": "Published values from different studies", "note": "Each numbered part is a random draw from the data of one study; scales do not carry over between parts. Values joined by “and” are separate records of one study, mostly repeats; a detail may differ.", "sequence of UniProt Q8NG66 (whole entry, looked up)": "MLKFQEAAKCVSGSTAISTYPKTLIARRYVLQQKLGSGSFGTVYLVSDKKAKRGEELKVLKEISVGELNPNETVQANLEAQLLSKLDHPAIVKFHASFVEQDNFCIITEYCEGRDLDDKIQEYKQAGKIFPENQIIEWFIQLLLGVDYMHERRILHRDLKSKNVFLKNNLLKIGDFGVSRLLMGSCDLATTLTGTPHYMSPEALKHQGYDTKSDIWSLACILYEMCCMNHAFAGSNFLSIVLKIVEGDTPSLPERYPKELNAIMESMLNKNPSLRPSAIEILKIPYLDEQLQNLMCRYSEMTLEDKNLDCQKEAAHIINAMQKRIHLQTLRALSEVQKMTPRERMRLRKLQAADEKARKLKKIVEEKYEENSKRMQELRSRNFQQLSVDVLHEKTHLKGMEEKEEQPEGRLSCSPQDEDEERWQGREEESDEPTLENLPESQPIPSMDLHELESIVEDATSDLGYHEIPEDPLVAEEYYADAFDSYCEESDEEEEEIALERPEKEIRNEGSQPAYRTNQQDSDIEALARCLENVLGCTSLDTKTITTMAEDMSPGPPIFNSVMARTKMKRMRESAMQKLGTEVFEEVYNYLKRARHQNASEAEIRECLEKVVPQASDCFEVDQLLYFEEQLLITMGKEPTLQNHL"}
{"data": "Set 1", "target": "Hepatocyte nuclear factor 3-alpha (Foxa1, Mus musculus, UniProt P35582, residues 1-468, full length assumed)", "technique": "EMSA with sequencing", "molecule type": "double-stranded DNA, one strand shown", "matrix": "in vitro", "tested at": "10 and 20 nM", "setting": "whole designed probe, mean of two concentrations, ends assumed", "reference": "negative control set to 0", "reading": "higher = stronger binding", "Construct (chain)": "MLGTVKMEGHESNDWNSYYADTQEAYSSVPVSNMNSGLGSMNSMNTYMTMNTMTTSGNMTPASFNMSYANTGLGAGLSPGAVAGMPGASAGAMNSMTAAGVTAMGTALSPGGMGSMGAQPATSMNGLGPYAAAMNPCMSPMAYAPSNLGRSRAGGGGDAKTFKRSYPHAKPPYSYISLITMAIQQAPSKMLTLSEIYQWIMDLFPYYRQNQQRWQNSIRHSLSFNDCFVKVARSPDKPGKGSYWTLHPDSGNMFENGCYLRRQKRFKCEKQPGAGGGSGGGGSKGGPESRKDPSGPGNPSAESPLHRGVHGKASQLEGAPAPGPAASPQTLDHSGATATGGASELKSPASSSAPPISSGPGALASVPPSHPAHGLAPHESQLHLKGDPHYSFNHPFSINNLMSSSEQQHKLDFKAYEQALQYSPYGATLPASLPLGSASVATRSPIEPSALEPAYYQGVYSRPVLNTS"}
{"Sequence": "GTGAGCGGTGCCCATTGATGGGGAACGAAGGAAATAATGGAGCCAACCATGCATATAACCTCAGGGAGAACATTCTAGGTAGAGGGAACAGCAAGTGCAAAGGCCCTGAAGTGGGGGTTAGATTACCTTGTTGCACAATCTGCACACAGGCCAGTACAATTGGAATGGATGGGAAATGTAAAAGAGAGAAGTTGAAAAGGCCAGGTGCAGTGGCTCATGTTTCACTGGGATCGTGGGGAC", "normalised bound fraction [ratio]": -0.0531}
{"Sequence": "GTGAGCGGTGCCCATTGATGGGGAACATACACTTCATTATGTCACTGTTGTTTGGTTGTGTTCTAGGCGAGAAACCACCTTTGGAAGGTTCACAGCAGCCCCAATTTAGCACTCTGCCATGTTTACATTGTCAGGCTGCATTGCCACTTCGGCGAACCATAGCTTTTTATCATCCCAGCCAGGGTGGCTGTGGGCAGCTTCTGCCTGGCAGGTAATAAGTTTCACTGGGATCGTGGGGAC", "normalised bound fraction [ratio]": 0.394}
{"Sequence": "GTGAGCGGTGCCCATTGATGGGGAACACAACATCAGGTCATTATTTATCCACTTGTCCTTTTTTTTTTTATCATTCCTTTGAACTGCCTGCATTTGCTTATCGTGATATTTCTCAGTCTGTAATCTGCCCGAGTAGCTGTTCTATTTCTCTAAATAGAGTCTTAGGTCATTTTATTATCCAGAATTGTAAGTCATCAGAATGCACCCATCTGTTGTCCTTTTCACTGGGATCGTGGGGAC", "normalised bound fraction [ratio]": 0.0601}
{"Sequence": "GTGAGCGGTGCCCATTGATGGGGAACGGTGTGACATATTCTCACTGCTATATATCAAAGCGTTAATGGTGGAATTTTGTCTTTGTAAAGCATTTGGAGTTATTTTCGAGAAAAGCGCTGTGTAAACAAGGAATTTATTTTAAGAACAACTCCATGTTTGTTGAGATACTTGTTTAGTTATTATGGCTTGGTCTAGTATCTGAAAATAGAATCAAAGTAATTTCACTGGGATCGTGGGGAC", "normalised bound fraction [ratio]": 0.462}
{"Sequence": "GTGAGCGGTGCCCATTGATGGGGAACATCTTCCCCCTCTTCCTTGCCCCACCAGCTCACCTTCCCGGGTTATTTGCAGATAGGAAAATAAATAAAGCCGGCATTCGTTAACCCTCTTCTGGCACATCTCGAGGTTTGCTCTGGATGAATCATGGTCCTTTGGCGACGCCAGGCTCCGGGAGAGCAAAGCACCGTGTCAGGGCCATGATCCGGGGTGGCCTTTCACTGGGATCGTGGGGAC", "normalised bound fraction [ratio]": 0.34}
{"Sequence": "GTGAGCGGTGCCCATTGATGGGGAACATAAAAGTCAAGGTGACTTCTGTTTTCTATACAAACAGAAATCTCCTTCATTTTTTATTCTTCTTAGACCAGGGGTATGTGTGTGTGAACTCCCTGTTTACATTGTACTAATAGCAATAAGCTAGGGGTACGAAAAGTAGTAATACAAGGTAGAAAGTGAGAGTAACTAGGATGTGACTTCTCTGCTGTGTATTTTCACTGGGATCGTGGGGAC", "normalised bound fraction [ratio]": 0.378}
{"Sequence": "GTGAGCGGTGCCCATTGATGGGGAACAGATTCCAGCCAGCAGAATAGGAATTTCAGAATACGATAAGGAGATGTTAAGGAAGGTCAGGCAGTAAAAAGAGGTTTGCTGACTCATGTGGTTTGTTGACTTAGCAAGTCAGGGAGAAGTCAATTGTTTGCTCTCCTGTTTTACAGTCTTTAGGTGTGGGCCAGCCCAGGGCCATTGATAGTCATTTTAGCCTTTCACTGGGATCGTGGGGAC", "normalised bound fraction [ratio]": 0.464}
{"Sequence": "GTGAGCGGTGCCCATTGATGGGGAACTTATGAGCCTTCCCATGTTATGGCTACATAGCTGTGATTATGTAATAAGTGGAGTTACGCTCCTGCGCTCCAAACTCGCTGAGTCACACAGGAAGATTACCTTGGCCTATGCCTGCCTGGCTGCAGTGCAGGCATATTCCTTACAAATAAACATTTCCTGAGAAACACCTACATGCTGGGCACTCTATTAGGCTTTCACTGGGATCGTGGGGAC", "normalised bound fraction [ratio]": 0.0864}
{"data": "Set 2", "target": "RING finger protein unkempt homolog, zinc fingers 1-6, GST-SBP tag (UNK, Homo sapiens, UniProt Q9C0B0, residues 30-357)", "technique": "RNA Bind-n-Seq", "molecule type": "RNA", "matrix": "in vitro", "tested at": "not given", "setting": "RNA with constant flanks, human-mouse chimeric sites, ends assumed", "reference": "input RNA pool", "reading": "higher = stronger binding", "Target sequence (chain)": "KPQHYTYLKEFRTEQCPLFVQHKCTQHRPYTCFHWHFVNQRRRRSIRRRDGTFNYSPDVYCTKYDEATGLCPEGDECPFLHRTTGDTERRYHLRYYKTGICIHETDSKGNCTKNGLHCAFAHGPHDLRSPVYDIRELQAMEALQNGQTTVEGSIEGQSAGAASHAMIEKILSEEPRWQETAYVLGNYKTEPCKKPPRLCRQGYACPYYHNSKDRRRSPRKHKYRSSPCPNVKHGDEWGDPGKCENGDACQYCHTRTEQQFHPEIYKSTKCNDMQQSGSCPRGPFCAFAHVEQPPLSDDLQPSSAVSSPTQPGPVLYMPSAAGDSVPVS"}
{"Sequence": "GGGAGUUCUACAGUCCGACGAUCGGACAUCUGUCAAAUUGUUAUGUUCCUGUGAAACAAGUGAACACUCUGAUACACUUCAUCUGCUUGUACAUCUGUAUUUGUAUAAUAUGUAAAUAUGUUAAUCCAAGCAAUGUGUCACUUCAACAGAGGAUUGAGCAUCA", "bound/input enrichment [ratio]": 0.171}
{"Sequence": "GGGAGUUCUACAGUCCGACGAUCGCUCUUGGCAAUGUAAUCAGCGCCUUGGGGGACAAGAGCAAGAGGGCCACCCAUGUCCCUUACAGAGACUCUAAGCUGACAAGACUCUUGCAGGAUUCCCUUGGGGGUAACAGCCAAACCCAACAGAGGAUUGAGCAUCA", "bound/input enrichment [ratio]": 0.0908}
{"Sequence": "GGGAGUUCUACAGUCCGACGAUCAUCCCAAUUAUGGACACCGGUGAAAACCCAGAGGUUCCCUUCCCUCGGGACAUGAUUGACUUAGAGGCCAAUUUUGAGAAGAUUGAAAAUGAACUGAAGGAAAUCAACACAAACCAGGAACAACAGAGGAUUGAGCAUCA", "bound/input enrichment [ratio]": 0.183}
{"Sequence": "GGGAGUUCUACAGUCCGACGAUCGUGCCCUUCUCGCUGCUGCGGAGCCCGAGCUGGGAACACCCCUUCCGCUGGUACCCUGCACACAGCCGCCUCUUCGAUCAAGCUUUCGGGGUGCCCCGGCUGCCGGAUGAGUGGUCGCAGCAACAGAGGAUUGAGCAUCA", "bound/input enrichment [ratio]": 0.0691}
{"Sequence": "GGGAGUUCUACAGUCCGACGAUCGUGCCCUUCUCGCUGCUGCGGAGCCCGAGCUGGGAACCAUUCCGGGACGACUGGUACCCGCAUAGCCGCCUCUUCGAUCAAGCUUUCGGGGUGCCCCGGUUGCCCGAUGAGUGGUCGCAGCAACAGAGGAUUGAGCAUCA", "bound/input enrichment [ratio]": 0.0938}
{"Sequence": "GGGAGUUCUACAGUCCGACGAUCUACAUCACCAAUGUCCUACAAAAUCCUGACUUGGCUCUGAGAAUGGCUGUGCGGAACAACUUAGCUGGUGCUGAAGAACUCUUUGCCCGGAAAUUUAAUGCUCUCUUUGCCCAGGGAAACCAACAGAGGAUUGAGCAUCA", "bound/input enrichment [ratio]": 0.244}
{"Sequence": "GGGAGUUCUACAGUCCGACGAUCGAACCUGCUCUCUCUGAUGAAGAUGAGGAAGACAAUGAUGAUGUUGAACCCAUUUCUGAAUUUCGAUUUGUGCCCAGUGAUAAGUCAGCAUUGGAGGCGAUGUUCACUGCAAUGUGCGAGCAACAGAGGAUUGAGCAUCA", "bound/input enrichment [ratio]": 0.237}
{"Sequence": "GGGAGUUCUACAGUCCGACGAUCAGAAAGCAAAACUUGGAACGAUUUAAGAAAGGAGAUGUAAGAUUCUUGAUUUGCACAGAUGUAGCUGCUAGAGGAAUUGAUAUCCAUGGCGUUCCUUAUGUGAUCAACGUCACCCUGCCUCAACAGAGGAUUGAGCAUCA", "bound/input enrichment [ratio]": 0.214}
{"data": "Set 3", "target": "Serine/threonine-protein kinase 17A (STK17A, Homo sapiens, UniProt Q9UEE5)", "read-out": "enzyme activity", "mode": "inhibitor", "tested at": "0.5 µM", "reference": "control", "sequence of UniProt Q9UEE5 (whole entry, looked up)": "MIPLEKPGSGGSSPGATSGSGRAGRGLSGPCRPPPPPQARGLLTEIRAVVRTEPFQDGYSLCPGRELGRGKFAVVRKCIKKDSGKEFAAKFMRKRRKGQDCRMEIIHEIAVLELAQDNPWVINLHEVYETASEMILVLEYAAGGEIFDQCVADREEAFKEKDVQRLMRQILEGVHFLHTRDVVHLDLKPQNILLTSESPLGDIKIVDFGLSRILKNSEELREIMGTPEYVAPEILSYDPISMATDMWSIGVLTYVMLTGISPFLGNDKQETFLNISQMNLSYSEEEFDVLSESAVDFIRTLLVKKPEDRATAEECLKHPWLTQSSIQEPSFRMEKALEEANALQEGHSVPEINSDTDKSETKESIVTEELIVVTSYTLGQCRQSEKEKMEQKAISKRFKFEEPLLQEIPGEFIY"}
{"Compound": "Cn1nc2c3c(cccc31)C(=O)c1ccccc1-2", "remaining activity [%]": 83.7}
{"Compound": "CN([C@@H](Cc1ccc(OS(=O)(=O)c2cccc3cnccc23)cc1)C(=O)N1CCN(c2ccccc2)CC1)S(=O)(=O)c1cccc2cnccc12", "remaining activity [%]": 104}
{"Compound": "Ic1cccc(CSc2nnc(-c3ccncc3)o2)c1", "remaining activity [%]": 95.8}
{"data": "Further values, each from its own experiment", "tested at": "1 µM"}
{"Structure (SMILES)": "CN(C)c1ncnc(-c2ccc3nc(Nc4cc(CN5CCN(C(=O)CC(F)(F)F)CC5)ccn4)[nH]c3c2)c1Cl", "target or system": "normal organoid sample H", "assay": "CellTiter-Glo", "test system": "human", "setting": "4 days", "scale": "reference: DMSO", "quantity": "viability", "value": "109% and 79.9%"}
{"Structure (SMILES)": "C[C@@H](c1cccc(C#N)c1)n1cc(Cl)cc(C(N)=O)c1=N", "target or system": "Serine/threonine-protein kinase Nek11 (NEK11, Homo sapiens, UniProt Q8NG66)", "assay": "cell-free assay, competition with immobilised ligand", "quantity": "remaining binding", "value": "92%"}
{"note": "For quick reference, copied from above (set 2):"}
{"Sequence": "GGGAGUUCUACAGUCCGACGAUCUACAUCACCAAUGUCCUACAAAAUCCUGACUUGGCUCUGAGAAUGGCUGUGCGGAACAACUUAGCUGGUGCUGAAGAACUCUUUGCCCGGAAAUUUAAUGCUCUCUUUGCCCAGGGAAACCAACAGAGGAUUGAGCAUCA", "bound/input enrichment [ratio]": 0.244}
{"Sequence": "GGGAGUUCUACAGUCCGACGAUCGAACCUGCUCUCUCUGAUGAAGAUGAGGAAGACAAUGAUGAUGUUGAACCCAUUUCUGAAUUUCGAUUUGUGCCCAGUGAUAAGUCAGCAUUGGAGGCGAUGUUCACUGCAAUGUGCGAGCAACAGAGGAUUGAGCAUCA", "bound/input enrichment [ratio]": 0.237}
